Results pooled from the literature.
Protocols differ between the studies behind these lines.
Organism: Escherichia coli

With `CC[C@H](C)[C@H](NC(=O)[C@H](C)NC(=O)[C@H](C)NC(=O)[C@H](Cc1ccccc1)NC(=O)[C@H](C)NC(=O)CNC(=O)[C@H](Cc1ccccc1)NC(=O)[C@@H](N)Cc1ccccc1)C(=O)N[C@@H](C)C(=O)N[C@@H](CO)C(=O)N[C@@H](CC(C)C)C(=O)N[C@H](C(=O)N[C@H](C(=O)N1CCC[C@H]1C(=O)N[C@@H](CCCCN)C(=O)N[C@@H](CC(C)C)C(=O)N[C@H](C(=O)N[C@@H](CCC(=O)O)C(=O)N[C@@H](CCCCN)C(=O)N[C@H](C(=O)N[C@@H](CCCCN)C(=O)N[C@@H](CCC(N)=O)C(=O)N[C@@H](C)C(=O)N[C@@H](CCCNC(=N)N)C(N)=O)[C@@H](C)CC)[C@@H](C)CC)[C@@H](C)CC)C(C)C` the MIC was over 50 µM (ATCC 35218, MHC medium with bicarbonate).
`CC(C)C[C@H](NC(=O)[C@H](CC(C)C)NC(=O)[C@H](CCCNC(=N)N)NC(=O)[C@H](CCCNC(=N)N)NC(=O)[C@H](CC(C)C)NC(=O)[C@H](CC(C)C)NC(=O)[C@H](CCCNC(=N)N)NC(=O)CCCCCNC(=O)/C=C/c1ccc(O)c(O)c1)C(=O)N[C@@H](CCCNC(=N)N)C(N)=O` gave an MIC of 37 µM (broth microdilution; ATCC 25922; 24 h, 37 °C).
With `CCCCCCCCCCCCCCCCCCSCC1OC(OC2C(N)CC(N)C(OC3OC(CN)C(O)CC3N)C2O)C(O)C(N)C1O` (stereo not shown) the MIC was over 150 µg/mL (BL21(DE3)).
`C[C@@](O)(C(F)F)[C@H](NC(=O)c1ccc(C#CC#CC2CC2)cc1)C(=O)NO` has an MIC of 0.01 µg/mL (broth microdilution; W3110, CAMHB).
With `CC(C)C[C@@H]1NC(=O)[C@@H](CC(C)C)NC(=O)[C@H](CCN)NC(=O)[C@@H](NC(=O)[C@H](CCN)NC(=O)[C@@H](N)[C@@H](C)O)CCNC(=O)[C@H]([C@@H](C)O)NC(=O)[C@H](CCN)NC(=O)[C@H](CCN)NC1=O` the MIC was over 64 µg/mL (broth microdilution; NDM-1, CAMHB with polysorbate-80; 16 h).
For `CC[C@H](C)[C@H](NC(=O)[C@@H](Cc1ccccc1)NC)C(=O)N[C@@H](CO)C(=O)N[C@H](CCCNC(=N)N)C(=O)N[C@@H](C(=O)N[C@H](C(=O)N[C@@H](CO)C(=O)N[C@H]1C(=O)N[C@@H](C)C(=O)N[C@@H](C2CCCCC2)C(=O)N[C@@H]([C@@H](C)CC)C(=O)O[C@H]1C)[C@@H](C)CC)[C@@H](C)CC`, the MIC was over 8 µg/mL (broth microdilution; ATCC 10798, Mueller-Hinton broth; 16 h, 37 °C).
With `CCCCCCCCCCCCCCCC(=O)NCCCC[C@H](N)C(=O)N[C@@H](CCCCN)C(=O)N[C@@H](CCCCN)C(=O)N[C@@H](CCCCN)C(=O)N[C@@H](CCCCN)C(=O)N[C@@H](CCCCN)C(N)=O` the MIC was 16 µg/mL (broth microdilution; K12, water pH 7; 18 h, 37 °C).
For `NCCCC[C@@H]1NC(=O)[C@@H](Cc2c[nH]c3ccccc23)NC(=O)[C@H](Cc2c[nH]c3ccccc23)NC(=O)[C@@H](N)CSCc2ccc(cc2)CSC[C@@H](C(N)=O)NC(=O)[C@@H](Cc2c[nH]c3ccccc23)NC(=O)[C@H](Cc2c[nH]c3ccccc23)NC(=O)[C@@H](Cc2c[nH]c3ccccc23)NC(=O)[C@H](CCCCN)NC(=O)[C@@H](CCCCN)NC(=O)[C@H](CCCCN)NC(=O)[C@@H](CCCCN)NC1=O`, the MIC was 64 µg/mL (W3110).
`CCCCCCCCCCCCCCCCCC(=O)N[C@@H](CCCCN)C(=O)N[C@@H](CCCCN)C(=O)N[C@@H](CCCCN)C(=O)N[C@@H](CCCCN)C(=O)N[C@@H](CCCCN)C(N)=O` gave an MIC of 4 µg/mL (broth microdilution; K12; 16-24 h, 37 °C, prepared at pH 7).
With `CCO[C@H]1[C@H](O)[C@@H](N)[C@@H](O[C@H]2[C@H](O[C@@H]3O[C@H](CO)[C@@H](O[C@H]4O[C@@H](CN)[C@@H](O)[C@H](O)[C@H]4N)[C@H]3O)[C@@H](O)[C@H](N)C[C@@H]2N)O[C@@H]1CO` the MIC was 32 µg/mL (broth microdilution; clinical isolate AG 003).
`N=C(N)NCCC[C@@H]1NC(=O)[C@H](CCCNC(=N)N)NC(=O)[C@H](CCCNC(=N)N)NC(=O)[C@H](CCCNC(=N)N)NC(=O)[C@H](Cc2c[nH]c3ccccc23)NC(=O)[C@H](CCCNC(=N)N)NC(=O)[C@H](CCCNC(=N)N)NC(=O)[C@@H](N)CCCn2cc(nn2)C[C@@H](C(N)=O)NC1=O` has an MIC of 250 µg/mL (ATCC 25922; 24 h, 37 °C).
For `CCCCCCCC/C=C\CCCCc1cc(=O)c2ccccc2n1C`, the MIC was over 1000 µg/mL (broth microdilution; Luria-Bertani broth).
The MIC of `CC[C@H](C)[C@H](NC(=O)[C@H](CCCNC(=N)N)NC(=O)[C@H](Cc1ccccc1)NC(=O)[C@H](CC(C)C)NC(=O)[C@H](CCCCN)NC(=O)[C@H](CO)NC(=O)[C@@H](NC(=O)[C@H](CC(C)C)NC(=O)[C@H](CCCCN)NC(=O)[C@H](C)NC(=O)[C@H](CC(N)=O)NC(=O)[C@H](CCCNC(=N)N)NC(=O)[C@H](Cc1ccc(O)cc1)NC(=O)[C@H](C)NC(=O)[C@@H](NC(=O)[C@H](CCCCN)NC(=O)[C@H](CC(N)=O)NC(=O)[C@H](CCCCN)NC(=O)[C@H](CC(C)C)NC(=O)[C@H](CO)NC(=O)[C@H](CC(C)C)NC(=O)[C@H](C)NC(=O)[C@H](C)NC(=O)[C@H](CO)NC(=O)[C@@H](NC(=O)[C@@H](NC(=O)[C@H](Cc1c[nH]c2ccccc12)NC(=O)[C@@H](NC(=O)[C@H](CO)NC(=O)[C@@H](NC(=O)[C@@H](N)CC(C)C)C(C)C)C(C)C)[C@@H](C)CC)[C@@H](C)CC)C(C)C)C(C)C)C(=O)N[C@@H](C)C(=O)N[C@@H](CC(C)C)C(=O)O` is reported as 1 µg/mL (25922; together with: ZnCl2 8 mM).
`CCCCCCCCCCCCCCCCSCC1OC(OC2C(N)CC(N)C(OC3OC(CN)C(O)CC3N)C2O)C(O)C(N)C1O` (stereo not shown) has an MIC of 18.8 µg/mL (BL21(DE3)).
For `Cc1cc(N)c2cc(NC(=O)c3ccc4c(-c5cccc(O)c5)cccc4c3)ccc2n1`, the MIC was over 200 µM (BW25113 wild type).
For `Cc1cccc(-c2nc(Nc3ccncn3)c3c(C)csc3n2)n1`, the MIC was over 64 µM (broth microdilution; 3).
With `CC(C)Oc1ccc(B(O)O)c(F)n1` the MIC was 256 µg/mL (bacterial growth; CTX-M-14 ESBL clinical isolate; cefotaxime alone).
With `CC[C@H](C)[C@H](NC(=O)[C@H](CCCNC(=N)N)NC(=O)[C@@H](N)CCCNC(=N)N)C(=O)N[C@@H](CCCNC(=N)N)C(=O)N[C@@H](Cc1ccccc1)C(=O)N[C@@H](CCCNC(=N)N)C(=O)N1CCC[C@H]1C(=O)N1CCC[C@H]1C(=O)N[C@@H](Cc1ccc(O)cc1)C(=O)N[C@@H](CC(C)C)C(=O)N1CCC[C@H]1C(=O)N[C@@H](CCCNC(=N)N)C(=O)N1CCC[C@H]1C(=O)NCC(=O)N[C@@H](CCCNC(=N)N)C(=O)N[C@@H](CCCNC(=N)N)C(=O)N1CCC[C@H]1C(=O)N[C@@H](CCCNC(=N)N)C(=O)N[C@@H](Cc1ccccc1)C(=O)N1CCC[C@H]1C(=O)N1CCC[C@H]1C(=O)N1CCC[C@H]1C(=O)N[C@@H](Cc1ccccc1)C(=O)N1CCC[C@H]1C(=O)N[C@H](C(=O)N1CCC[C@H]1C(=O)N[C@@H](CCCNC(=N)N)C(=O)N[C@H](C(=O)N1CCC[C@H]1C(=O)N[C@@H](CCCNC(=N)N)C(=O)N[C@H](C(=O)N1CCC[C@H]1C(=O)O)[C@@H](C)CC)[C@@H](C)CC)[C@@H](C)CC` the MIC was 1.2 µM (broth microdilution; BW25113 wild type, Mueller-Hinton broth; overnight, 37 °C).
`Nc1nc2ccc(Oc3ccc4nc(N)sc4c3)cc2s1` has an MIC of 32 to 64 µg/mL (microbial growth, broth dilution; DC2; 20 h).
`CCCCCCCCCCCCCC(=O)N[C@H](CCN)C(=O)N[C@@H]1C(=O)N[C@@H](CCN)C(=O)N[C@@H](CC(C)C)C(=O)N[C@@H](CCN)C(=O)N[C@H](Cc2ccccc2)C(=O)N[C@@H](CC(C)C)C(=O)N[C@@H](CCN)C(=O)N[C@H](CCN)C(=O)N[C@@H](C(C)C)C(=O)N[C@@H](CC(=O)O)C(=O)O[C@@H]1C` has an MIC of 2 µg/mL (broth microdilution; ATCC 25922).
`CC(C)C[C@H](NC(=O)[C@H](CC(C)C)NC(=O)[C@H](C)NC(=O)[C@H](NC(=O)[C@H](CO)NC(=O)[C@@H](CCCCN)NC(=O)[C@@H](CC(C)C)NC(=O)[C@@H](N)Cc1ccccc1)[C@@H](O)C(N)=O)C(=O)O` has an MIC of over 32 µg/mL (ATCC 10798; TFA salt).
`CC[C@H](C)[C@H](NC(=O)[C@H](CCCCN)NC(=O)[C@@H]1CCCN1C(=O)[C@@H](NC(=O)[C@H](CC(C)C)NC(=O)[C@H](CCCCN)NC(=O)[C@H](CC(C)C)NC(=O)[C@@H](NC(=O)[C@H](CO)NC(=O)CNC(=O)[C@H](Cc1ccccc1)NC(=O)[C@@H](N)Cc1ccccc1)C(C)C)[C@@H](C)CC)C(=O)N[C@@H](CC(C)C)C(N)=O` gave an MIC of 25 µM (broth microdilution; K12).
For `CN[C@H](CC(C)C)C(=O)N[C@H]1C(=O)N[C@@H](CC(N)=O)C(=O)N[C@H]2C(=O)N[C@H]3C(=O)N[C@H](C(=O)N[C@H](C(=O)O)c4cc(O)cc(O)c4-c4cc3ccc4O)[C@H](O)c3ccc(c(Cl)c3)Oc3cc2cc(c3O[C@@H]2O[C@H](CO)[C@@H](O)[C@H](O)[C@H]2O[C@H]2C[C@](C)(NCc3ccc(OCc4cn(CCOCCOCCOCCC(=O)N[C@H](C(=O)N[C@@H](CCN)C(=O)N[C@H]5CCNC(=O)[C@H]([C@@H](C)O)NC(=O)[C@H](CCN)NC(=O)[C@H](CCN)NC(=O)[C@H](CC(C)C)NC(=O)[C@@H](CC(C)C)NC(=O)[C@H](CCN)NC5=O)[C@@H](C)O)nn4)c(OC)c3)[C@H](O)[C@H](C)O2)Oc2ccc(cc2Cl)[C@H]1O`, the MIC was 32 µg/mL (broth microdilution; ATCC 25922; 18 to 20 h, 37 °C, 0.002% polysorbate 80).
`C[C@@H](N)[C@H](O)CCCCCCCC(=O)CCCCCCCCCCCCCC[C@@H](O[C@@H]1O[C@H](CO)[C@H](O)[C@H](O)[C@H]1O)[C@H](N)CO` gave an MIC of 22.8 µM (microbial growth, resazurin; ATCC10536; 6 h).
`CC[C@H](C)[C@H](NC(=O)[C@H](CCN)NC(=O)CCCCCCCCCCCNC(=O)CCCCCOC(=O)c1cn(C2CC2)c2cc(N3CCNCC3)c(F)cc2c1=O)C(=O)N[C@@H](CCN)C(=O)N[C@H](Cc1ccccc1)C(=O)N[C@@H](CC(C)C)C(=O)N[C@@H](CCN)C(=O)N[C@@H](C(=O)N[C@@H](CC(C)C)C(=O)N[C@@H](CO)C(N)=O)C(C)C` gave an MIC of 1.56 µM (24 h, 37 °C).
